Experimental data of several laboratories.
Compare with care: the assays were run in different laboratories. “And” joins repeats or separate records; there may be more than shown. Numbers after ± are the reported error.

Structure (SMILES) = C/C(=N\OCCCN1CCCCC1)c1ccc(C(F)(F)F)cc1; system = C57BL/6 mouse; conditions = dose not given, 0.5 to 4 h; endpoint = plasma concentration; value = 70 to 280 ng/mL
Structure (SMILES) = CCCCCCCCCCCCCCCC(=O)NCCCC[C@H](NC(=O)[C@H](CCCCN)NC(=O)[C@H](CCCCN)NC(=O)[C@@H]1CCCN1C(=O)CNC(=O)[C@H](CC(C)C)NC(=O)[C@H](CC(C)C)NC(=O)[C@H](Cc1ccc(O)cc1)NC(=O)CNC(=O)[C@H](C)NC(=O)[C@H](CO)NC(=O)[C@H](CC(N)=O)NC(=O)[C@H](CC(C)C)NC(=O)[C@@H](NC(=O)[C@H](Cc1c[nH]c2ccccc12)NC(=O)CNC)[C@@H](C)O)C(=O)N[C@@H](CCCCN)C(N)=O; system = CF-1 mouse, plasma; conditions = intraperitoneal, dose not given, 1 h, 6 Hz 32 mA seizure model, full protection; endpoint = plasma concentration; value = 4500 ng/mL
Structure (SMILES) = COC(=O)C[C@](O)(CCCC(C)(C)OC(C)=O)C(=O)O[C@@H]1C(OC)=C[C@]23CCCN2CCc2cc4c(cc2[C@H]13)OCO4; system = CD-1 mouse, plasma; conditions = subcutaneous, 1 mg/kg, 24 h; endpoint = plasma concentration; value = not detected
Structure (SMILES) = C[C@H](CCC(=O)N[C@@H](CCCCNC(=O)C(F)(F)F)C(=O)O)[C@H]1CC[C@H]2[C@@H]3[C@H](O)C[C@@H]4C[C@H](O)CC[C@]4(C)[C@H]3C[C@H](O)[C@]12C; system = C57BL/6J mouse, plasma; conditions = oral, 50 mg/kg, 5 h; endpoint = plasma concentration; value = 10.3 µM and 0.48 µM and 63.6 µM
Structure (SMILES) = CC[C@H](C)[C@H](N)C(=O)N[C@H](C(=O)N[C@@H](CCCNC(=N)N)C(=O)N[C@@H](CCCNC(=N)N)C(=O)N[C@@H](C)C(=O)N[C@@H](CC(=O)O)C(=O)N[C@@H](CCCNC(=N)N)C(=O)N[C@@H](C)C(=O)N[C@@H](C)C(=O)N[C@H](C(=O)N1CCC[C@H]1C(=O)NCC(=O)NCC(=O)NCC(=O)NCC(=O)NCC(=O)N[C@@H](CC(N)=O)C(=O)N[C@@H](CCC(N)=O)C(=O)N[C@@H](Cc1c[nH]c2ccccc12)C(=O)N[C@@H](Cc1ccccc1)C(=O)N[C@H](C(=O)O)[C@@H](C)CC)C(C)C)C(C)C; system = BALB/c mouse; conditions = intravenous, 20 mg/kg, 24 h; endpoint = plasma concentration; value = not detected
Structure (SMILES) = CC1=C[C@H]2c3c(O)cc(CCc4ccccc4)cc3OC(C)(C)[C@@H]2CC1; test = LC-MS/MS; system = male BALB/c mouse, plasma; conditions = intraperitoneal, 40 mg/kg, 1 h, with: Δ9-trans-THC 10 mg/kg and cis-PET 50 mg/kg; endpoint = plasma concentration; value = 1.56 µM
Structure (SMILES) = CN(C)C(CNC(=O)Nc1cc(C(F)(F)F)ccc1N1CCOCC1)c1ccncc1 (stereo not drawn); system = mouse, C57BL/6J, plasma; conditions = intraperitoneal, 240 mg/kg, 1 h; endpoint = plasma concentration; value = 176000 ng/mL
Structure (SMILES) = CCOc1ccc(NC(=S)N(CCO)Cc2cc3cc(C)cc(C)c3[nH]c2=O)cc1; test = measured: irinotecan, SN-38, SN-38-G; system = BALB/cJ mouse, plasma; conditions = oral, 20 µg/day, with: irinotecan 50 mg/kg ip; endpoint = plasma irinotecan level; value = no effect
Structure (SMILES) = CN(CC(=O)N(Cc1ccc(C2CCCCC2)cc1)c1ccc(C(=O)O)cc1)S(=O)(=O)c1c(F)c(F)c(F)c(F)c1F; system = CD-1 mouse; conditions = intravenous, 5 mg/kg, 5 min; endpoint = plasma concentration; value = 124 ng/mL
Structure (SMILES) = CCCCCCCC(=O)NCCCC[C@H](NC(=O)[C@H](Cc1ccccc1)NC(=O)[C@@H](CCCNC(=N)N)NC(=O)[C@@H](N)Cc1ccc(O)cc1)C(N)=O; system = mouse, CD-1, male, plasma; conditions = intravenous, 3 mg/kg, 20 min, with: curcumin nanoemulsion 10 mg/kg; how to read = relative to: with over without curcumin; endpoint = plasma concentration ratio; value = 9.3 fold
Structure (SMILES) = O=C(O)CCn1c(=O)oc2cc(Cl)c(Cl)cc21; system = mouse, Kmo knockout, plasma; conditions = intravenous, 30 mg/kg, 1 h; endpoint = plasma concentration; value = 351 ± 87 µM
Structure (SMILES) = O=C1C(P(=O)(O)O)CCCN1O (stereo not drawn); system = mouse, plasma; conditions = subcutaneous, 400 mg/kg, 2 h, detection limit 1 µM; endpoint = plasma concentration; value = not detected

For quick reference, copied from above:
Structure (SMILES) = C[C@H](CCC(=O)N[C@@H](CCCCNC(=O)C(F)(F)F)C(=O)O)[C@H]1CC[C@H]2[C@@H]3[C@H](O)C[C@@H]4C[C@H](O)CC[C@]4(C)[C@H]3C[C@H](O)[C@]12C; system = C57BL/6J mouse, plasma; conditions = oral, 50 mg/kg, 5 h; endpoint = plasma concentration; value = 10.3 µM and 0.48 µM and 63.6 µM
Structure (SMILES) = C/C(=N\OCCCN1CCCCC1)c1ccc(C(F)(F)F)cc1; system = C57BL/6 mouse; conditions = dose not given, 0.5 to 4 h; endpoint = plasma concentration; value = 70 to 280 ng/mL
